# Assay results from different studies.
# Each numbered part is a random draw from the data of one study; scales do not carry over between parts. Substitutions count along the parent as printed.

# Series 1
# Target: ABI1, truncated, D143A, DHFR fusion (Arabidopsis thaliana)
# Method: DHFR PCA, deep sequencing
# Matrix: yeast
# Notes: methotrexate growth selection, single substitutions
# With: (+)-ABA 0.0091 µM
# Relative to: wild-type fitted maximum
# Reading: higher = stronger binding
# Starting sequence: PYL1, truncated, DHFR fusion (Arabidopsis thaliana); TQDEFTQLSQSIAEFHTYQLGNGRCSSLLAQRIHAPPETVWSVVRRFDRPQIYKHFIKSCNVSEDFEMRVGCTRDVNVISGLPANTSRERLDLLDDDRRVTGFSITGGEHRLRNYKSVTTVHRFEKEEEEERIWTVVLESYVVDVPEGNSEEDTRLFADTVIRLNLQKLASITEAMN; partner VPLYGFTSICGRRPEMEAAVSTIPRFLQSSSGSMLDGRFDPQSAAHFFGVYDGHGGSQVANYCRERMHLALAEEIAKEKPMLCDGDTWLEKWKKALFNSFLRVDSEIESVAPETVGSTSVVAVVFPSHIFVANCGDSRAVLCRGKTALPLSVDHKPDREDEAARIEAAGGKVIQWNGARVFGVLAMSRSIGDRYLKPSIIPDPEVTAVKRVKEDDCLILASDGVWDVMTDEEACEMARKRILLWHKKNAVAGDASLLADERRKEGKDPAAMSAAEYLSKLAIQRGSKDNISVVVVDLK
Variant,relative binding score [%]
S26M,3.48
D3R,14.9
Q51I,-5.29
Q19L,-0.2
N149L,27.8
I105A,-1.05
C72N,6.42
T120V,-9.08
T160R,-2.23
I133V,59.2
E151L,23.5
V100I,13.4
L91V,8.23

# Series 2
# Target: Ras GTPase-activating protein-binding protein 1, full length (G3BP1, Homo sapiens, UniProt Q13283)
# Chain of UniProt Q13283 (whole entry, looked up): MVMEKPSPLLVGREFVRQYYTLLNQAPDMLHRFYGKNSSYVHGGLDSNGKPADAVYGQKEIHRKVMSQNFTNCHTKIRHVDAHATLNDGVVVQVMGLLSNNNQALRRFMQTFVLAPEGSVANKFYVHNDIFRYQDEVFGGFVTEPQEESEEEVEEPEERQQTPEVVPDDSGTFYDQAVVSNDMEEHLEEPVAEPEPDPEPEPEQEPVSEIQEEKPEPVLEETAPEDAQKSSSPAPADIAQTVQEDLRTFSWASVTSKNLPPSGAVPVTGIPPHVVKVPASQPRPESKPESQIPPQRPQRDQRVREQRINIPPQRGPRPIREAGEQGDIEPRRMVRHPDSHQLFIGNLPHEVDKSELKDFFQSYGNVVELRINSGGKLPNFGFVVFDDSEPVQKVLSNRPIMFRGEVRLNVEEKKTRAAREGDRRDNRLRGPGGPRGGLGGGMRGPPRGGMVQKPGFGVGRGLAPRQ
# Method: RNA Bind-n-Seq
# Molecule type: RNA
# Matrix: in vitro
# Concentration: 200 nM
# Notes: whole 134-nt RNA, ends assumed
# With: 150 mM KCl
# Relative to: input library
# Reading: higher = stronger binding
# All sequences stand within: GGGAGUUCUACAGUCCGACGAUC … UGGAAUUCUCGGGUGUCAAGG
Strand,log2 enrichment
GUCCUGUGCUACACAUCGUAUGUACCGAAUCGGGUUUUUGGUUUUUGGGGUUUUUGGGAAAGUAUUAUGUUACGCCGUUCGGAUCUGCAC,-0.715
UAACUUUAGAGGAGGAUCUGAUGGAUAUGGCAGUGGACGUGGAUUUGGGGACGGCUAUAAUGGGUAUGGAGGAGGACCUGGAGGUGGCAA,0.231
AAGUCCUGUGCUACACAUCGUAUGUACCGAAUCGGGAGGGAAAAAGGGAAAAAGGGAAAGUAUUAUGUUACGCCGUUCGGAUCUGCACUU,0.202
AAGUCCUGUGCUACACAUCGUAUGUACCGAAUCGGGCCCGGGGCCCGGGCCCGGGGAAAGUAUUAUGUUACGCCGUUCGGAUCUGCACUU,-1.29
GUCCUGUGCUACACAUCGUAUGUACCGAAUCGGGGUGGGGUUUUUGGGGUUUUUGGGGAAAGUAUUAUGUUACGCCGUUCGGAUCUGCAC,0.378
GGGGUGAGCACAGACAGGAUCGCAGGGAGAGGCCGUAUUAAUUAGCCUGGCUCCCCAGGUUCUGGAACAGCUUUUUGUCCUGUACCCAGU,0.00666
UGGCUCUGGUGGCAUGCGGGGAGGAAGAGGUGGCCUCAUGGAUCGUGGUGGUCCCGGUGGAAUGUUCAGAGGUGGCCGUGGUGGAGACAG,0.497
GUCCUGUGCUACACAUCGUAUGUACCGAAUCGGGGUUUUUGGGGAAAGGGGUUUGGGGAAAGUAUUAUGUUACGCCGUUCGGAUCUGCAC,0.647
GUCCUGUGCUACACAUCGUAUGUACCGAAUCGGGUUUGGGAAAAAAAGGGAAAAAGGGAAAGUAUUAUGUUACGCCGUUCGGAUCUGCAC,-0.325
GUCCUGUGCUACACAUCGUAUGUACCGAAUCGGGGAGGGGUUUUUUUGGGGAAAGGGGAAAGUAUUAUGUUACGCCGUUCGGAUCUGCAC,0.652
UCAAGUCCUGUGCUACACAUCGUAUGUACCGAAUCGGAAAAAAAGGAAAGGAGGAAAGUAUUAUGUUACGCCGUUCGGAUCUGCACUUCC,-0.91
AAGUCCUGUGCUACACAUCGUAUGUACCGAAUCGGGGUUUUGGGUUUUGGUUUUGGGAAAGUAUUAUGUUACGCCGUUCGGAUCUGCACU,-0.69
UACUCAGCACAGAAAUUCAGGAGACACAGACAAGUUCUUCCACGAUGUCGUACAGACGAGAACUAGAGAAAUACCGUGACCUGGAUGAAG,0.745
GUCCUGUGCUACACAUCGUAUGUACCGAAUCGGGGUUUUUUUGGGGUGGGGUUUGGGGAAAGUAUUAUGUUACGCCGUUCGGAUCUGCAC,0.457

# Series 3
# Target: Interferon regulatory factor 7, full length, phosphomimetic (IRF7, Homo sapiens, UniProt Q92985, residues 1-503, S471D/S472D/S475D/S476D/S477D/S483D/S484D/S487D)
# Chain of UniProt Q92985 (whole entry, unmodified, looked up): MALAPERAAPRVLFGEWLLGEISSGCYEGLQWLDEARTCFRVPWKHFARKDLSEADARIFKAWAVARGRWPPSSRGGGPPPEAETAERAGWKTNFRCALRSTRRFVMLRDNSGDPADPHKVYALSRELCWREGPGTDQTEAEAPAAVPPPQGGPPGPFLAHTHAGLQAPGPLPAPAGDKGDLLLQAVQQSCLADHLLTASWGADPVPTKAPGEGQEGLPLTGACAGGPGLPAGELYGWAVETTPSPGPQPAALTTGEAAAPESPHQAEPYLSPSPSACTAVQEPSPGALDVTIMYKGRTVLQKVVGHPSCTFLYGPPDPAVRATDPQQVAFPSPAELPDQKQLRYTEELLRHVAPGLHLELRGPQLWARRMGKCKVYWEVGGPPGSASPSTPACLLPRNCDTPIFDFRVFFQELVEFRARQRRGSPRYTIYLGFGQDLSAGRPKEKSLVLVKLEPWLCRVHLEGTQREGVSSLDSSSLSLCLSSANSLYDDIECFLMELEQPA
# Method: protein-binding microarray
# Molecule type: double-stranded DNA, one strand shown
# Matrix: in vitro
# Concentration: 2200 nM top
# Notes: 60-bp whole probe
# With: salmon DNA 0.4 mg/ml
# Relative to: random background probes
# Reading: higher = stronger binding
# All sequences stand within: GCCTAGCAC … GTCTTGATTCGCTTGACGCTGCTG
Strand,fitted relative affinity
GACGATATCGCGTATCGAGACGTGCTA,0.537 z-score
GTTAGTGGGATGGCTGTGGTGTGCTAG,-0.777 z-score
TGGTCTTTCCACTTTCTTTTGTGCTAG,3.37 z-score
TAAGGACTGGGGTATCGGTTAGTGCTA,-0.399 z-score
TCAGGTATCGGTTTCGGTTAGTGCTAG,7.87 z-score
TCCTTTATGTACTCTCTACATGTGCTA,1.91 z-score
TTAGAACTGGAGACTGGATTAGTGCTA,-0.9 z-score
CCTTGCATGTTTTTGACAAAGTGCTAG,0.778 z-score
TTAGATATCCGGACTGGATTAGTGCTA,-0.306 z-score
GACGATATCGGTTTTCGAGACGTGCTA,2.47 z-score
GAGGGTCTCCTTATCCTGACGTGCTAG,0.706 z-score
TGTTATTAAATTTTCACGGTGTGCTAG,0.513 z-score
TTAGGTTTAGACACTGGGTTAGTGCTA,-0.357 z-score

# Series 4
# Target: CCND1, cyclin fold, Cln2 fusion (human)
# Method: yeast growth competition, sequencing
# Matrix: yeast
# Notes: strong parent motif
# Relative to: not given
# Reading: higher = stronger binding
# Starting sequence: RBL1 docking peptide (human); GSAKRRLFGEDPP; partner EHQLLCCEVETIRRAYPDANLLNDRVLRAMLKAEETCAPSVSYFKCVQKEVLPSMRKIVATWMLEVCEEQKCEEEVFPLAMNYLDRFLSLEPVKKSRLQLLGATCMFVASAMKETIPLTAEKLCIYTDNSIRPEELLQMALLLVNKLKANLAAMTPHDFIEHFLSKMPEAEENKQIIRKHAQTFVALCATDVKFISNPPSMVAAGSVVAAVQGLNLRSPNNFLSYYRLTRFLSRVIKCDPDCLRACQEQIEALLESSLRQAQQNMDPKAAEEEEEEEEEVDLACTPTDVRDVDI
Variant,normalised enrichment score
E10Q,0.291
P12Y,1.93
K4A,2.06
R5A L7A,-0.0113
R5P,0.996
K4D,1.23
S2V,0.574
A3R,0.245
F8E,0.668
R6W,-0.246
E10W,0.514
R6V,1.76
E10H,1.11
L7P,0.228
E10C,0.839
R5L,0.927

# Series 5
# Target: Histone acetyltransferase KAT6A, winged helix 2, GST fusion (KAT6A, Homo sapiens, UniProt Q92794, residues 85-181)
# Method: protein binding microarray
# Molecule type: double-stranded DNA, one strand shown
# Matrix: in vitro
# Concentration: not given
# Notes: 8-mer, flanks averaged, mean of 2 arrays, mostly near background
# Relative to: not given
# Reading: higher = stronger binding
# Residues (chain): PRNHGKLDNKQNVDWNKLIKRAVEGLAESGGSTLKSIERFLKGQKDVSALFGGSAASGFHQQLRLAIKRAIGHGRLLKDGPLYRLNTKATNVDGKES
Strand,E-score
AGCCTAAT,-0.0652
GCACGTCC,-0.106
CCCCAGCA,0.058
GCGTCCAA,-0.0146
CAGAAGTC,-0.142
AGCCGTTG,0.0199
AACCATCG,0.0421
AGGGTAAG,-0.0221
ATCATATG,0.00036
CGCGGATC,0.0731
AGGGGACG,0.0153
AATAGCCT,-0.248
CGCTCAAC,0.0885
ATTCTATC,0.0285
TACCAGAA,0.0819
CCCACTAA,-0.0335
AATAGCAC,-0.0448
CCGTGATA,-0.0795
ACAGGCAT,-0.0239
ACTGCGCC,-0.0997
ATATGTTC,-0.00384
AGGTTTCA,-0.0139
AATGTGGA,-0.0912
CGTTAGAG,-0.129
CATTAACA,-0.0896

# Series 6
# Target: Sal-like protein 4, full length isoform B (SALL4, Homo sapiens, UniProt Q9UJQ4-2, residues 1-616)
# Method: universal PBM
# Molecule type: double-stranded DNA, one strand shown
# Matrix: in vitro
# Concentration: not given
# Notes: 8-mer, flanks averaged, mean of replicates
# Reading: higher = stronger binding
Strand,E-score
ATCATTGC,0.0876
GAACTCGC,-0.154
AACTAATT,0.292
AAGGCGGG,-0.214
CTATAGTA,0.187
GTCGCAAA,0.0295
GAGTTGAA,0.0335
ACTTCTCC,-0.076
CTACATTC,0.123
CTTCTGTC,-0.0313
AGAACCCG,-0.237
ATTAACGA,0.25
CAACAATG,0.0413
ACCTACGA,0.0282
GGTACGGA,-0.216
AGGTCGGG,-0.183
CCGTGGGA,-0.293

# Series 7
# Target: Phosphate system positive regulatory protein PHO4, full length, GST-tagged (PHO4, Saccharomyces cerevisiae, UniProt P07270, residues 1-312)
# Method: competition protein-binding microarray
# Molecule type: double-stranded DNA, one strand shown
# Matrix: in vitro
# Concentration: 2 µM
# Notes: whole 60-bp probe, lowest competitor level
# With: Cbf1 competitor, 0.05 µM
# Reading: higher = stronger binding
# All sequences stand within: … GTCTTGATTCGCTTGACGCTGCTG
# Target sequence (chain): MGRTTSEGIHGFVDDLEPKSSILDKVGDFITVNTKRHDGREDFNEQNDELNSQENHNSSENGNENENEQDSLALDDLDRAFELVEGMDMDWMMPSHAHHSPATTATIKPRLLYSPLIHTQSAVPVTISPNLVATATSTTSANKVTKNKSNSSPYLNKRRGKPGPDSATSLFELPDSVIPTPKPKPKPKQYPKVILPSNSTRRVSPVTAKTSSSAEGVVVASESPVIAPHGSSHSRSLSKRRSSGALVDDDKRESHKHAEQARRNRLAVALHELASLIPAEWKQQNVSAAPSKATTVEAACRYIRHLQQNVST
Strand,fluorescence intensity [a.u.]
AAATTACTAAGTTGGAGTGTGGGTGACGCCGTATGA,5390
GCATTTGTCTTCTTTCATTTGAAATCTTCATAATCT,2730
CACAAGGCCCAATCAATGGTGGTATCGAAGTTACAT,4400
ATTCGCATCTCTGGACACGTGCTTTATGTAGTTGAC,19800
CTTTCTGCCAAATTGAACGTGTCGGTCAAGCAATCC,9400
GTCTTGTCTCATTGCCTTGTGGGTGTCCCCACTTCA,5790
AAATTACTAAGTTGGGACGTGGGTGACGCCGTATGA,6270
CCTTTTCAATGAAAGCACGTTACTGAATTCAGAGAA,11600
TGAACCCCAACCTCATGTGTGACGGCTCTTCTCCCG,7170
AGAGTAGTCAGTCAACACGTTACCTCTGGTAACAGA,7440
AAATTACTAAGTTGGCACGTGTTTTACCCCGTATGA,22900
TTCACAGATATTTCTTCCGTGATGGTTTAATGGTCA,3660
TTACAGGTCGTCTTCCACGTGGTGAGTATCAAAGTA,18200
CGTCCTAGTGATTGGGATGTGGGTGCCATGAGGAAG,6660
CTCTAATCCCACCACCACATGCCACACTCACCCTCA,13400
TACGTTCTGAGAAAGCACGTGAAGGAAGAGAAAACC,13200

# Excerpt of the above (series 4):
Variant,normalised enrichment score
R5P,0.996
K4D,1.23
S2V,0.574
A3R,0.245
F8E,0.668
R6W,-0.246
E10W,0.514
R6V,1.76
E10H,1.11
L7P,0.228
E10C,0.839
